Experimental data pooled from the literature.
Parts stem from different laboratories: compare values within a part only. “And” joins repeats or separate records; there may be more than shown.
Chain of UniProt Q13882 (whole entry, looked up): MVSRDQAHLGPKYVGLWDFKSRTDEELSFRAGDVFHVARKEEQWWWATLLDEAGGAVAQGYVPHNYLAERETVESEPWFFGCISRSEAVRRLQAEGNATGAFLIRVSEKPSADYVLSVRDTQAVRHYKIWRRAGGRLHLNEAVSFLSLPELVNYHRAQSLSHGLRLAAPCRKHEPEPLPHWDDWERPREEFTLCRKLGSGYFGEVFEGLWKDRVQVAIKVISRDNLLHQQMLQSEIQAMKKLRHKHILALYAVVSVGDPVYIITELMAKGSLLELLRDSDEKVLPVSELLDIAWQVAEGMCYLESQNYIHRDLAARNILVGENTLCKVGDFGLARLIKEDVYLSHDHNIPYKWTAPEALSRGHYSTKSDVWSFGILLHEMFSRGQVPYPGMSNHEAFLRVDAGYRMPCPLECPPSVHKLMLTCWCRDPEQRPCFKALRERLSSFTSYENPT
Chain of UniProt Q99683 (whole entry, looked up): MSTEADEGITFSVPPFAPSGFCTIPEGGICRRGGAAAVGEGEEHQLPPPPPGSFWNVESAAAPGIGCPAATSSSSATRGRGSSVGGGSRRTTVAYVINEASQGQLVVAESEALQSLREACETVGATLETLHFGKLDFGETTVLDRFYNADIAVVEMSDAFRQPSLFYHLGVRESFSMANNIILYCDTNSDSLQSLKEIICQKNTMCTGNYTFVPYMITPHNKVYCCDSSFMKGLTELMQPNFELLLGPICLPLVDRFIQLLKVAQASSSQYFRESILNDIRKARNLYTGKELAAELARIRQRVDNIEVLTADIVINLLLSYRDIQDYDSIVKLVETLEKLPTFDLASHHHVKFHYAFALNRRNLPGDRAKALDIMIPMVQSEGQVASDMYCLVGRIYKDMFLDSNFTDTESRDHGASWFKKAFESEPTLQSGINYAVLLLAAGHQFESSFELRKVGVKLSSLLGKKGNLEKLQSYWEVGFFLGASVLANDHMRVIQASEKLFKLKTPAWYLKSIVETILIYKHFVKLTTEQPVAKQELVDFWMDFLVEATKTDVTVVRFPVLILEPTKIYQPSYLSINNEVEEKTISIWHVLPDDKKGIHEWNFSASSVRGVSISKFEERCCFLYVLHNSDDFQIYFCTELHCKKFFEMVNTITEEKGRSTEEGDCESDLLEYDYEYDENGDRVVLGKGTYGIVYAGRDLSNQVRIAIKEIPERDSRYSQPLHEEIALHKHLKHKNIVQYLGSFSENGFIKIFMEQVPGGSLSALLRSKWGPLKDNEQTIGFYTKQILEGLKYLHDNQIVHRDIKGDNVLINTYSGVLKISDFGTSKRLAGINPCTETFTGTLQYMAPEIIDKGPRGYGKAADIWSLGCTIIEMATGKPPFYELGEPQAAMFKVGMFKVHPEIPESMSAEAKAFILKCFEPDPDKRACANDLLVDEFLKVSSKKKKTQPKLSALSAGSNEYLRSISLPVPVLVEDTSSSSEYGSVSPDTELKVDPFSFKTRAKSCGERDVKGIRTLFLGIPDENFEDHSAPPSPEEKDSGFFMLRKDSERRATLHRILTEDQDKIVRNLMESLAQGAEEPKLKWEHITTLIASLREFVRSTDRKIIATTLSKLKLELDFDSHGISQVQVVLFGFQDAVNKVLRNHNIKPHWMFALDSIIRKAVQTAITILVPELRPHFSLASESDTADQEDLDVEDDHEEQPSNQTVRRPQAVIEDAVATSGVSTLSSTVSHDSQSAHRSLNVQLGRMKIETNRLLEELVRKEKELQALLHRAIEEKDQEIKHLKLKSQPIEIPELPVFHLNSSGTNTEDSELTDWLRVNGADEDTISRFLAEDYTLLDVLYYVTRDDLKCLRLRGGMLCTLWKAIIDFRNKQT
Chain of UniProt Q06418 (whole entry, looked up): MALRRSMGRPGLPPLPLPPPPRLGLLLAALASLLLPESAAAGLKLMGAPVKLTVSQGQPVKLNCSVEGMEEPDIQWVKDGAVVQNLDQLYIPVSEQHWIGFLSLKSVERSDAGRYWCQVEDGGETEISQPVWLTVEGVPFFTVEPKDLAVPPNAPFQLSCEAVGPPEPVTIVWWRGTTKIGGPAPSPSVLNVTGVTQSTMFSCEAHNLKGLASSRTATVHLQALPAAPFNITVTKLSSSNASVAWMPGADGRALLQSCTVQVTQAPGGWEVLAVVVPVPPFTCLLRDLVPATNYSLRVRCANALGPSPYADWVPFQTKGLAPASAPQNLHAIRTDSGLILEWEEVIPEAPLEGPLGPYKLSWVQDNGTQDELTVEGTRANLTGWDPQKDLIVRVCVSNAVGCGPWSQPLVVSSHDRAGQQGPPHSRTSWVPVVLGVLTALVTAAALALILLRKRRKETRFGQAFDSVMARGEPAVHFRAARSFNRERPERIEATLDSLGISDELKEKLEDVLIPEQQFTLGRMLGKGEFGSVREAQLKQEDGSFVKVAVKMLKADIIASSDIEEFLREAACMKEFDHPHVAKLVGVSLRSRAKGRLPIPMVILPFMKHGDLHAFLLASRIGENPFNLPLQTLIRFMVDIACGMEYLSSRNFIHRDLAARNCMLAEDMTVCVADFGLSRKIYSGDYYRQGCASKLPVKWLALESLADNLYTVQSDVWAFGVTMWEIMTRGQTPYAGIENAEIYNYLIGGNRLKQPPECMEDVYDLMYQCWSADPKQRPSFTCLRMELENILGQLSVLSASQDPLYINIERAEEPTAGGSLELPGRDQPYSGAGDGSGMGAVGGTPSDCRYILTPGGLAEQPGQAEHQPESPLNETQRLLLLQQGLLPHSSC
Chain of UniProt Q13705 (whole entry, looked up): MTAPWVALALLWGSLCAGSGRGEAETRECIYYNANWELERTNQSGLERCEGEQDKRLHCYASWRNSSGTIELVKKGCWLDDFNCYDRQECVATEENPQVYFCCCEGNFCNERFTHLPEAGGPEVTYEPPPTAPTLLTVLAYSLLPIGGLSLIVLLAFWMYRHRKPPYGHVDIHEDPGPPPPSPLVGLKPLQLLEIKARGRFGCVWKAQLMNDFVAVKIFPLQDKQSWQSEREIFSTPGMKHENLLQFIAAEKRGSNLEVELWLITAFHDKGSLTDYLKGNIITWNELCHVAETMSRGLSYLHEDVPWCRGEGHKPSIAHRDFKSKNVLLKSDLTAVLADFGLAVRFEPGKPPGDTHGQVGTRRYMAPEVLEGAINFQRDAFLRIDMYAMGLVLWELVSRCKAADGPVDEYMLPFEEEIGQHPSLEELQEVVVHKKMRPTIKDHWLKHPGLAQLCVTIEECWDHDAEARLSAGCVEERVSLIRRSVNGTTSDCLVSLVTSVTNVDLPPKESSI
Chain of UniProt Q9UBF8 (whole entry, looked up): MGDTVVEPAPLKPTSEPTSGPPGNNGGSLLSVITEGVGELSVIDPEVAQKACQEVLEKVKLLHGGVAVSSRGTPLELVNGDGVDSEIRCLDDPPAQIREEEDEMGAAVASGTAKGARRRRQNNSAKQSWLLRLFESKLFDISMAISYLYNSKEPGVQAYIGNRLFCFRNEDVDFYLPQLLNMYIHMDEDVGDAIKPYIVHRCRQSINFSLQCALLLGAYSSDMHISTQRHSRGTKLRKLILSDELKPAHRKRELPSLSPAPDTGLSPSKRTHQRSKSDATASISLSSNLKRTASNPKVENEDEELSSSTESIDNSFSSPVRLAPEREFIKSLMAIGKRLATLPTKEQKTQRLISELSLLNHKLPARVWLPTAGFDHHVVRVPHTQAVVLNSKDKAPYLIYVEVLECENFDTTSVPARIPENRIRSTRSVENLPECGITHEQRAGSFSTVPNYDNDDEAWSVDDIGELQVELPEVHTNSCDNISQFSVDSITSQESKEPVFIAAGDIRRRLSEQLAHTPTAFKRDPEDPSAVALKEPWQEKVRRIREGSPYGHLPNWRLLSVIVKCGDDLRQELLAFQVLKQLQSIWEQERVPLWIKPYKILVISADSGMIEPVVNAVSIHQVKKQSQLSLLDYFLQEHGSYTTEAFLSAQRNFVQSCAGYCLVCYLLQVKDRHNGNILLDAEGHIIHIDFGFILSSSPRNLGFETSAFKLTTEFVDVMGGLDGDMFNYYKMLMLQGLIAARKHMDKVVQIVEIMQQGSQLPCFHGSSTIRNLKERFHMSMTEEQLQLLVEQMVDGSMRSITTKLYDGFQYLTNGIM

Set 1 — read-out: enzyme activity; action: inhibitor; concentration: 0.5 µM; relative to: control
Target: Serine/threonine-protein kinase PLK1 (PLK1, Homo sapiens, UniProt P53350)
Chain of UniProt P53350 (whole entry, looked up): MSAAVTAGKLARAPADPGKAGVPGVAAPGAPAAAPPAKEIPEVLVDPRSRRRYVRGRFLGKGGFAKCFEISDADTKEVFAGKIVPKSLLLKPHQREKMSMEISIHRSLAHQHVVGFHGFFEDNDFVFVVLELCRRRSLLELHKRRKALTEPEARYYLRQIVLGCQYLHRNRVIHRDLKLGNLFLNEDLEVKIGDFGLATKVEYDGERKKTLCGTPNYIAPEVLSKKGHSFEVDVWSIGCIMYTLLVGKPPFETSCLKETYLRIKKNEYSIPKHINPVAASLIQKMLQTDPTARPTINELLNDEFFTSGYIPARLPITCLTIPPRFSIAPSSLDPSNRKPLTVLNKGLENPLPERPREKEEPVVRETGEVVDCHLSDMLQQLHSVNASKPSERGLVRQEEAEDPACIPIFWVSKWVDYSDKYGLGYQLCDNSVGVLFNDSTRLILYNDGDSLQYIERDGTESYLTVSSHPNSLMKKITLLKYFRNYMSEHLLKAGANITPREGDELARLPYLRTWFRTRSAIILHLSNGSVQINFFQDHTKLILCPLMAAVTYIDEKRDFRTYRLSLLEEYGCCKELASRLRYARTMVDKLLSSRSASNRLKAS
The remaining activity of `Cc1cc(Nc2cc(N3CCN(C)CC3)nc(Sc3ccc(NC(=O)C4CC4)cc3)n2)[nH]n1` is reported as 95.2%.
The remaining activity of `O=C(c1cc2cc(O)ccc2[nH]1)c1cc2cc(O)ccc2[nH]1` is reported as 101%.
`Oc1cccc(-c2nc(N3CCOCC3)c3oc4ncccc4c3n2)c1` gave a remaining activity of 97.9%.
`COc1ccc(COc2ccc(Cc3cnc(N)nc3N)cc2OC)cc1` gave a remaining activity of 97.1%.
With `COc1cccc(-c2cc(=O)c3ccccc3o2)c1N` the remaining activity was 88.2%.
`O=Nc1c(-c2c(O)[nH]c3cc(Br)ccc23)[nH]c2ccccc12` has a remaining activity of 101%.
`CN(C)S(=O)(=O)c1ccc2c(c1)/C(=C/c1cc3c([nH]1)CCCC3)C(=O)N2` gave a remaining activity of 101%.
`c1ccc2c(-c3ccncc3)c[nH]c2c1` has a remaining activity of 102%.
For `O=C1Nc2ccc(Br)cc2/C1=C/c1cc2c([nH]1)CCCC2`, the remaining activity was 102%.
`O=C1Cc2c([nH]c3ccc(Br)cc23)-c2ccccc2N1` gave a remaining activity of 94.9%.
`CCCNC(=O)Nc1ccc(Oc2ncnc3cc(OC)c(OC)cc23)cc1Cl` has a remaining activity of 101%.
`Cc1ccc(S(=O)(=O)/C=C/C#N)cc1` has a remaining activity of 110%.
With `O=C1Nc2ccccc2/C1=C\c1c(Cl)[nH]c2ccccc12` the remaining activity was 95.4%.
`c1ccc(-c2n[nH]c3c2oc2ccccc23)cc1` has a remaining activity of 106%.
`COc1ccc2c(c1)c(C1=C(c3c[nH]c4ccccc34)C(=O)NC1=O)cn2CCCN(C)C` gave a remaining activity of 104%.
`O=C1NC(=O)c2c1c1c3ccccc3[nH]c1n1cncc21` has a remaining activity of 50.8%.
`N#Cc1cnc2cnc(NCc3cccnc3)cc2c1Nc1ccc(F)c(Cl)c1` gave a remaining activity of 92.6%.
`CN1CCN(c2ccc3nc(-c4c(N)c5c(F)cccc5[nH]c4=O)[nH]c3c2)CC1` has a remaining activity of 96.9%.
For `CCCCc1c(-c2ccc(OC)cc2)[nH]c2nccnc12`, the remaining activity was 104%.

Set 2 — technique: competition with immobilised ligand; concentration: 1 µM
SMILES: CCOCCn1cc(C(=O)Nc2ccc(-n3nc(-c4cccnc4)cc3C(F)(F)F)cn2)ccc1=O
The remaining binding was 100% (Phosphatidylinositol 4-kinase beta (PI4KB, Homo sapiens, UniProt Q9UBF8); cell-free assay).
Protein-tyrosine kinase 6 (PTK6, Homo sapiens, UniProt Q13882); cell-free assay — remaining binding: 100%.
The remaining binding was 97% (Serine/threonine-protein kinase PRP4 homolog (PRPF4B, Homo sapiens, UniProt Q13523); cell-free assay).
It gave 100% for remaining binding (Glycogen synthase kinase-3 alpha (GSK3A, Homo sapiens, UniProt P49840); cell-free assay).
The remaining binding was 90% (Mitogen-activated protein kinase kinase kinase 7 (MAP3K7, Homo sapiens, UniProt O43318); cell-free assay).
It gave 0% for remaining binding (Tyrosine-protein kinase receptor TYRO3 (TYRO3, Homo sapiens, UniProt Q06418); cell-free assay).
Serine/threonine-protein kinase 17B (STK17B, Homo sapiens, UniProt O94768); cell-free assay — remaining binding: 81%.
Bone morphogenetic protein receptor type-1A (BMPR1A, Homo sapiens, UniProt P36894); binding — remaining binding: 70%.
The remaining binding was 100% (Casein kinase I isoform gamma-1 (CSNK1G1, Homo sapiens, UniProt Q9HCP0); cell-free assay).
It gave 83% for remaining binding (Tyrosine-protein kinase Mer (MERTK, Homo sapiens, UniProt Q12866); cell-free assay).
Serine/threonine-protein kinase 35 (STK35, Homo sapiens, UniProt Q8TDR2); cell-free assay — remaining binding: 94%.
It gave 82% for remaining binding (Tyrosine-protein kinase Fes/Fps (FES, Homo sapiens, UniProt P07332); cell-free assay).
The remaining binding was 100% (Serine/threonine-protein kinase pim-1 (PIM1, Homo sapiens, UniProt P11309); cell-free assay).
Activin receptor type-2B (ACVR2B, Homo sapiens, UniProt Q13705); cell-free assay — remaining binding: 100%.
Ribosomal protein S6 kinase alpha-5, C-terminal kinase domain (RPS6KA5, Homo sapiens, UniProt O75582); cell-free assay — remaining binding: 63%.
It gave 100% for remaining binding (Leucine-rich repeat serine/threonine-protein kinase 2 (LRRK2, Homo sapiens, UniProt Q5S007, G2019S); cell-free assay).
The remaining binding was 93% (Death-associated protein kinase 2 (DAPK2, Homo sapiens, UniProt Q9UIK4); cell-free assay).
For Mitogen-activated protein kinase 6 (MAPK6, Homo sapiens, UniProt Q16659); cell-free assay: remaining binding read 100%.
For Epidermal growth factor receptor (EGFR, Homo sapiens, UniProt P00533, G719C); cell-free assay: remaining binding read 97%.
The remaining binding was 88% (Cyclin-dependent kinase 7 (CDK7, Homo sapiens, UniProt P50613); cell-free assay).
The remaining binding was 100% (Mitogen-activated protein kinase kinase kinase 5 (MAP3K5, Homo sapiens, UniProt Q99683); cell-free assay).
The remaining binding was 100% (SRSF protein kinase 3 (SRPK3, Homo sapiens, UniProt Q9UPE1); cell-free assay).
It gave 92% for remaining binding (cAMP-dependent protein kinase catalytic subunit alpha (PRKACA, Homo sapiens, UniProt P17612); cell-free assay).
For Tyrosine-protein kinase SYK (SYK, Homo sapiens, UniProt P43405); cell-free assay: remaining binding read 100%.
It gave 100% for remaining binding (Serine/threonine-protein kinase MRCK alpha (CDC42BPA, Homo sapiens, UniProt Q5VT25); cell-free assay).

Set 3 — read-out: RNA clamping; technique: fluorescence polarization; concentration: concentration not given; together with: FAM-labelled poly r(AG)8 RNA
Target: Eukaryotic initiation factor 4A-III (Homo sapiens, UniProt P38919)
Chain of UniProt P38919 (whole entry, looked up): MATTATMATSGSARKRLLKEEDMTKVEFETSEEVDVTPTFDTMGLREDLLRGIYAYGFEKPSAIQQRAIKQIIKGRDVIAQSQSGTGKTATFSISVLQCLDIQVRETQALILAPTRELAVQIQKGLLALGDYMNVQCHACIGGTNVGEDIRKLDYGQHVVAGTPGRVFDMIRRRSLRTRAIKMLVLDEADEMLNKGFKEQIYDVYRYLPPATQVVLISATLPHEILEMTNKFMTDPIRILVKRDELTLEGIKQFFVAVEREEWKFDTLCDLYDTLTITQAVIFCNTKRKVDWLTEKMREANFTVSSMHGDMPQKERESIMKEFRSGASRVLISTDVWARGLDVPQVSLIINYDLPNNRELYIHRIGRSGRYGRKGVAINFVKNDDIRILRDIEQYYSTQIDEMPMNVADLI
For `COC(=O)[C@H]1C(=O)[C@@]2(NCc3ccccc3)c3c(OC)cc(OC)cc3O[C@@]2(c2ccc(OC)cc2)[C@@H]1c1ccccc1`, “fluorescence polarization change” read 6.2 mP.
For `COc1cc(OC)c2c(c1)O[C@@]1(c3ccc(Br)cc3)[C@H](c3ccccc3)C3=C(N[C@H]4CCCN4C3=O)[C@@]21O`, “fluorescence polarization change” read 18.6 mP.
Under “fluorescence polarization change”, `COc1ccc([C@@]23Oc4cc(OC)cc(OC)c4[C@]2(O)c2nc(-c4cccc(OC)c4)[nH]c(=O)c2[C@H]3c2ccccc2)cc1` is recorded as 8.8 mP and 26.8 mP.
`CCOCCOCCN(OC)C(=O)[C@H]1[C@@H](O)[C@@]2(O)c3c(OC)cc(OC)cc3O[C@@]2(c2ccc(OC)cc2)[C@@H]1c1ccccc1`: “fluorescence polarization change” 10.8 mP.
`COC(=O)[C@@H]1[C@@H](c2ccccc2)[C@]2(c3ccc(OC)cc3)Oc3cc(OC)cc(OC)c3[C@@]23NC(N2CCOCC2)=N[C@@]13O` — result for “fluorescence polarization change”: 30.4 mP.
`COc1cc(OC)c2c(c1)O[C@@]1(c3ccc(Br)cc3)[C@H](c3ccccc3)[C@@H](C(=O)N(C)OC)[C@@H](O)[C@@]21O`: “fluorescence polarization change” 43 mP.
`COc1ccc([C@@]23Oc4cc(OC)c(F)c(OC)c4[C@]2(O)c2nc4n(c(=O)c2[C@H]3c2ccccc2)CCC4)cc1` — result for “fluorescence polarization change”: 12.8 mP.
`COC(=O)/C=C/Oc1nc(-c2ccccc2)nc2c1[C@@H](c1ccccc1)[C@]1(c3ccc(OC)cc3)Oc3cc(OC)cc(OC)c3[C@]21O`: “fluorescence polarization change” 0.4 mP.
`COc1ccc([C@]23[C@H](c4ccccc4)C[C@@H](O)[C@@]2(O)c2c(F)cccc2N3C)cc1`: “fluorescence polarization change” -0.8 mP.
Under “fluorescence polarization change”, `COCCOCOC(=C(F)F)c1ccc([C@@H]2[C@@H](C(=O)N(C)OC)[C@@H](O)[C@@]3(O)c4c(OC)cc(OC)cc4O[C@@]23c2ccc(OC)cc2)cc1` is recorded as -4.1 mP.
For `C#CCCC1(CCNC(=O)CCCn2c(-c3ccccc3)nc3c(c2=O)[C@@H](c2ccccc2)[C@]2(c4ccc(OC)cc4)Oc4cc(OC)cc(OC)c4[C@]32O)N=N1`, “fluorescence polarization change” read 4 mP.
`COc1ccc([C@@]23Oc4cc(OC)cc(OC)c4[C@]2(O)[C@H](O)[C@H](C(=O)c2ccco2)[C@H]3c2ccccc2)cc1` — result for “fluorescence polarization change”: 17.2 mP and 6.8 mP.
For `COc1ccc([C@@]23Oc4cc(OC)cc(OC)c4[C@]2(O)[C@H](O)[C@H](C(=O)NOCc2ccccc2)[C@H]3c2ccccc2)cc1`, “fluorescence polarization change” read 5.6 mP.
`COc1ccc([C@@]23Oc4cc(O)cc(OC)c4[C@]2(O)c2nc4n(c(=O)c2[C@H]3c2ccccc2)CCC4)cc1`: “fluorescence polarization change” 28.1 mP.
`COC(=O)[C@@H]1[C@@H](c2ccccc2)[C@]2(c3ccc(OC)cc3)Oc3cc(OC)cc(OC)c3[C@@]23N=C(c2ccccc2)N[C@@]13O`: “fluorescence polarization change” 11.7 mP.
`COC(=O)[C@@H]1[C@@H](O)[C@@]2(O)c3c(OC)cc(OS(=O)(=O)c4ccc(C)cc4)cc3O[C@@]2(c2ccc(OC)cc2)[C@H]1c1ccccc1`: “fluorescence polarization change” -5.5 mP.

Set 4 — dose: dose not given; relative to: vehicle
SMILES: CC(=O)N[C@@H](Cc1c[nH]c2ccccc12)C(=O)N[C@@H](CCC(=O)C=[N+]=[N-])C(=O)OC(C)C
For measured: hexose diphosphates; Mus musculus, EL4 tumour: “log2 fold change” read 0.346.
measured: thymidine; mouse, EL4 tumour-bearing, EL4 tumour — “log2 fold change”: -0.397.
It gave 0.314 for “log2 fold change” (measured: bilirubin; mouse, EL4 tumour-bearing, EL4 tumour).
The “log2 fold change” was 0.251 (measured: benzoate; mouse, EL4 tumour-bearing, EL4 tumour).
measured: catechol sulfate; mouse, EL4 tumour-bearing, EL4 tumour — “log2 fold change”: 1.07.
For measured: thymine; mouse, EL4 tumour-bearing, EL4 tumour: “log2 fold change” read 0.181.
measured: bicine; mouse, EL4 tumour-bearing, EL4 tumour — “log2 fold change”: 0.61.
The “log2 fold change” was 0.32 (measured: methyl glucopyranoside (alpha + beta); Mus musculus, EL4 tumour).
It gave 0.449 for “log2 fold change” (measured: o-Tyrosine; mouse, EL4 tumour-bearing, EL4 tumour).
The “log2 fold change” was -0.599 (measured: betaine; mouse, EL4 tumour-bearing, EL4 tumour).
It gave 0.331 for “log2 fold change” (measured: 3-(3-hydroxyphenyl)propionate sulfate; mouse, EL4 tumour, tumour).
For measured: N2,N2-dimethylguanosine; Mus musculus, EL4 tumour: “log2 fold change” read -1.23.
The “log2 fold change” was 0.82 (measured: galactose 1-phosphate; mouse, EL4 tumour-bearing, EL4 tumour).
The “log2 fold change” was -0.521 (metabolomics, measured: 5'-GMP; mouse, EL4 tumour).
The “log2 fold change” was 0.596 (measured: N-acetylmethionine; mouse, EL4 tumour-bearing, EL4 tumour).
measured: lactate; mouse, EL4 tumour-bearing, EL4 tumour — “log2 fold change”: 0.114.

Excerpt of the above (set 3):
`COc1ccc([C@]23[C@H](c4ccccc4)C[C@@H](O)[C@@]2(O)c2c(F)cccc2N3C)cc1`: “fluorescence polarization change” -0.8 mP.
Under “fluorescence polarization change”, `COCCOCOC(=C(F)F)c1ccc([C@@H]2[C@@H](C(=O)N(C)OC)[C@@H](O)[C@@]3(O)c4c(OC)cc(OC)cc4O[C@@]23c2ccc(OC)cc2)cc1` is recorded as -4.1 mP.
For `C#CCCC1(CCNC(=O)CCCn2c(-c3ccccc3)nc3c(c2=O)[C@@H](c2ccccc2)[C@]2(c4ccc(OC)cc4)Oc4cc(OC)cc(OC)c4[C@]32O)N=N1`, “fluorescence polarization change” read 4 mP.
`COC(=O)/C=C/Oc1nc(-c2ccccc2)nc2c1[C@@H](c1ccccc1)[C@]1(c3ccc(OC)cc3)Oc3cc(OC)cc(OC)c3[C@]21O`: “fluorescence polarization change” 0.4 mP.
`COc1ccc([C@@]23Oc4cc(OC)c(F)c(OC)c4[C@]2(O)c2nc4n(c(=O)c2[C@H]3c2ccccc2)CCC4)cc1` — result for “fluorescence polarization change”: 12.8 mP.
`COc1ccc([C@@]23Oc4cc(OC)cc(OC)c4[C@]2(O)[C@H](O)[C@H](C(=O)c2ccco2)[C@H]3c2ccccc2)cc1` — result for “fluorescence polarization change”: 17.2 mP and 6.8 mP.
For `COC(=O)[C@H]1C(=O)[C@@]2(NCc3ccccc3)c3c(OC)cc(OC)cc3O[C@@]2(c2ccc(OC)cc2)[C@@H]1c1ccccc1`, “fluorescence polarization change” read 6.2 mP.
`COc1ccc([C@@]23Oc4cc(O)cc(OC)c4[C@]2(O)c2nc4n(c(=O)c2[C@H]3c2ccccc2)CCC4)cc1`: “fluorescence polarization change” 28.1 mP.
For `COc1ccc([C@@]23Oc4cc(OC)cc(OC)c4[C@]2(O)[C@H](O)[C@H](C(=O)NOCc2ccccc2)[C@H]3c2ccccc2)cc1`, “fluorescence polarization change” read 5.6 mP.
Under “fluorescence polarization change”, `COc1ccc([C@@]23Oc4cc(OC)cc(OC)c4[C@]2(O)c2nc(-c4cccc(OC)c4)[nH]c(=O)c2[C@H]3c2ccccc2)cc1` is recorded as 8.8 mP and 26.8 mP.
`CCOCCOCCN(OC)C(=O)[C@H]1[C@@H](O)[C@@]2(O)c3c(OC)cc(OC)cc3O[C@@]2(c2ccc(OC)cc2)[C@@H]1c1ccccc1`: “fluorescence polarization change” 10.8 mP.
For `COc1cc(OC)c2c(c1)O[C@@]1(c3ccc(Br)cc3)[C@H](c3ccccc3)C3=C(N[C@H]4CCCN4C3=O)[C@@]21O`, “fluorescence polarization change” read 18.6 mP.
`COC(=O)[C@@H]1[C@@H](c2ccccc2)[C@]2(c3ccc(OC)cc3)Oc3cc(OC)cc(OC)c3[C@@]23NC(N2CCOCC2)=N[C@@]13O` — result for “fluorescence polarization change”: 30.4 mP.
